Experimental data from different studies.
Compare with care: the assays were run in different laboratories. ± gives the spread as reported.
Target: ATP-dependent translocase ABCB1 (ABCB1, Homo sapiens, UniProt P08183)
Sequence of UniProt P08183 (whole entry, looked up): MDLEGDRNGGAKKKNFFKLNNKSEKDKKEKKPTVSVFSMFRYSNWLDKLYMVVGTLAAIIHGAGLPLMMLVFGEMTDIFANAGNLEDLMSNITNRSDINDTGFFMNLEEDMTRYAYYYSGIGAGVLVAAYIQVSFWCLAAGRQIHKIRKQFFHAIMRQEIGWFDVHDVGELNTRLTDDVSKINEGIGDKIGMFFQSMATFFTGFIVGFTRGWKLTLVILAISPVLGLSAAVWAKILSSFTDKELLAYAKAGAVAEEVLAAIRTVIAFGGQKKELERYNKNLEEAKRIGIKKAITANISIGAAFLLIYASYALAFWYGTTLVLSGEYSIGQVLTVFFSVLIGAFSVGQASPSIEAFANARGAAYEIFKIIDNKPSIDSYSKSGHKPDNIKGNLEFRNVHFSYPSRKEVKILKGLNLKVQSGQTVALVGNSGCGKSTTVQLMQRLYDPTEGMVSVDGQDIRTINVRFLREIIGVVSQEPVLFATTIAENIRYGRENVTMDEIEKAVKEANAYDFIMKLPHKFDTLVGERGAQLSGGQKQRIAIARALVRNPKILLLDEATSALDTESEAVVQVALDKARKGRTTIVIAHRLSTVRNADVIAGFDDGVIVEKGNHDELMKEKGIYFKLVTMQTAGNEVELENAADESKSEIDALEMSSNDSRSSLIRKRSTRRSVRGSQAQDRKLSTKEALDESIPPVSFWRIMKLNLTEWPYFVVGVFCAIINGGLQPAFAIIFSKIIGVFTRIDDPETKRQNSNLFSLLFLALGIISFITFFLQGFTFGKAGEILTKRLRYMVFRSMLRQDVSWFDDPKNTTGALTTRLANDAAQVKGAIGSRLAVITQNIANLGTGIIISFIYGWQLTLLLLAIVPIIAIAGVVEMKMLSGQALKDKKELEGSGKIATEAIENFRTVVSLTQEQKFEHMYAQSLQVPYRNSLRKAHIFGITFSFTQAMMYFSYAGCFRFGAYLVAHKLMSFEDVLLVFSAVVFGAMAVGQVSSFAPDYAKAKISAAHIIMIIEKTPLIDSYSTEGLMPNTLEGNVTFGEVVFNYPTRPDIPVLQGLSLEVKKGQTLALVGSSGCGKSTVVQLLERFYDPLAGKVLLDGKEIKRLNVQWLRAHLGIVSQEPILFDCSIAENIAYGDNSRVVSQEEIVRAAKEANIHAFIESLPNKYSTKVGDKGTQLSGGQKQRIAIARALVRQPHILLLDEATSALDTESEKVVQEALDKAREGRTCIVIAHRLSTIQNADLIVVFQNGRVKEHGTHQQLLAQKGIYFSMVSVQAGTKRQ

Structure (SMILES)	assay	test system	conditions	endpoint	value
C=CC(=O)N1CC2(CCN(c3nc4c(c(-c5cc(O)cc6ccccc56)c3C#N)C[C@H]3C[C@@H]4C3(C)C)C2)C1	–	–	–	efflux ratio	33
C[C@H]1O[C@@H](O[C@H]2[C@@H](O)C[C@H](O[C@H]3[C@@H](O)C[C@H](O[C@H]4CC[C@@]5(C)[C@H](CC[C@@H]6[C@@H]5C[C@@H](O)[C@]5(C)[C@@H](C7=CC(=O)OC7)CC[C@]65O)C4)O[C@@H]3C)O[C@@H]2C)C[C@H](O)[C@@H]1O	–	human, plasma	oral, dose not given, added: valemetostat	AUClast increase	27%
Cc1cc(S(=O)(=O)N[C@H]2CC[C@H](N3CCN(CC4CCN(c5cccc6c5n(C)c(=O)n6C5CCC(=O)NC5=O)CC4)CC3)CC2)ccc1Nc1ncc(C(F)(F)F)c(N2CCC[C@](C)(O)C2)n1 (stereo partly shown)	bidirectional transport	MDCK cells expressing ABCB1	1 µM, 120 min, pH 7.4	efflux ratio	> 108
CC[C@H]1[C@@H](O)[C@@H]2[C@H](CC[C@]3(C)[C@@H]([C@H](C)CCNC(=O)NS(=O)(=O)c4ccc(C(C)(C)C)cc4)CC[C@@H]23)[C@@]2(C)CC[C@@H](O)C[C@@H]12	–	human, plasma	arithmetic mean	Tlast	71 h
Cc1cc(S(=O)(=O)N[C@]2(C)C[C@H](N3CCN(CC4CCN(c5ccc6c(c5F)n(C)c(=O)n6C5CCC(=O)NC5=O)CC4)CC3)C2)ccc1Nc1ncc(C(F)(F)F)c(N2CCC[C@](C)(O)C2)n1 (stereo partly shown)	bidirectional transport	MDCK cells expressing ABCB1	1 µM, 120 min, pH 7.4	efflux ratio	29
CS(=O)(=O)CCNCc1ccc(-c2ccc3ncnc(Nc4ccc(OCc5cccc(F)c5)c(Cl)c4)c3c2)o1	bidirectional transwell permeability	MDCKII cells transfected with ABCB1	1 µM, 1 h, pH 7.4, added: elacridar 0.5 µM	Papp A-B	1.11 ± 0.69 ×10⁻⁶ cm/s
C[C@H]1O[C@@H](O[C@H]2[C@@H](O)C[C@H](O[C@H]3[C@@H](O)C[C@H](O[C@H]4CC[C@@]5(C)[C@H](CC[C@@H]6[C@@H]5C[C@@H](O)[C@]5(C)[C@@H](C7=CC(=O)OC7)CC[C@]65O)C4)O[C@@H]3C)O[C@@H]2C)C[C@H](O)[C@@H]1O	substrate	MDCK-II cells expressing ABCB1	10 µM, added: zosuquidar 5 µM	efflux ratio decrease	96.2%
CCOc1cc2ncc(C#N)c(Nc3ccc(OCc4ccccn4)c(Cl)c3)c2cc1NC(=O)/C=C/CN(C)C	bidirectional transwell permeability	MDCKII cells transfected with ABCB1	1 µM, 1 h, pH 7.4, added: elacridar 0.5 µM	Papp A-B	1.15 ± 0.56 ×10⁻⁶ cm/s
C[C@H]1O[C@@H](O[C@H]2[C@@H](O)C[C@H](O[C@H]3[C@@H](O)C[C@H](O[C@H]4CC[C@@]5(C)[C@H](CC[C@@H]6[C@@H]5C[C@@H](O)[C@]5(C)[C@@H](C7=CC(=O)OC7)CC[C@]65O)C4)O[C@@H]3C)O[C@@H]2C)C[C@H](O)[C@@H]1O	substrate	Caco-2	5 µM, 2 h, added: zosuquidar 5 µM	Papp (B to A)	1.3 ± 0.25 ×10⁻⁶ cm/s
C=C(F)C(=O)N1CCN(c2nc(OC[C@@H]3CCCN3C)nc3c2CCN(c2cccc4cccc(Cl)c24)C3)C[C@@H]1CC#N	–	MDCK-MDR1	–	Papp A-B	0.7 ×10⁻⁶ cm/s
C[C@]12CCCN1CC1=NNC(=O)c3cc(F)cc4[nH]c2c1c34	–	MDCKII-MDR1	10 µM, added: verapamil 100 µM	Papp A-B	33.9 ×10⁻⁶ cm/s
Cc1cc(Nc2ncnc3ccc(NC4=NC(C)(C)CO4)cc23)ccc1Oc1ccn2ncnc2c1	bidirectional transwell permeability	MDCKII cells transfected with ABCB1	1 µM, 1 h, pH 7.4, added: elacridar 0.5 µM	Papp A-B	11.4 ± 2.76 ×10⁻⁶ cm/s
Cc1cc(S(=O)(=O)NCCO[C@H]2CC[C@H](CN3CCC(c4ccc5c(c4)n(C)c(=O)n5C4CCC(=O)NC4=O)CC3)CC2)ccc1Nc1ncc(C(F)(F)F)c([C@H]2CC[C@@](C)(O)CC2)n1 (stereo partly shown)	bidirectional transport	MDCK cells expressing ABCB1	1 µM, 120 min, pH 7.4	efflux ratio	> 30

For quick reference, copied from above:
Structure (SMILES)	assay	test system	conditions	endpoint	value
CCOc1cc2ncc(C#N)c(Nc3ccc(OCc4ccccn4)c(Cl)c3)c2cc1NC(=O)/C=C/CN(C)C	bidirectional transwell permeability	MDCKII cells transfected with ABCB1	1 µM, 1 h, pH 7.4, added: elacridar 0.5 µM	Papp A-B	1.15 ± 0.56 ×10⁻⁶ cm/s
C[C@H]1O[C@@H](O[C@H]2[C@@H](O)C[C@H](O[C@H]3[C@@H](O)C[C@H](O[C@H]4CC[C@@]5(C)[C@H](CC[C@@H]6[C@@H]5C[C@@H](O)[C@]5(C)[C@@H](C7=CC(=O)OC7)CC[C@]65O)C4)O[C@@H]3C)O[C@@H]2C)C[C@H](O)[C@@H]1O	substrate	Caco-2	5 µM, 2 h, added: zosuquidar 5 µM	Papp (B to A)	1.3 ± 0.25 ×10⁻⁶ cm/s
